Results gathered from unrelated publications.
Every numbered part comes from another study and shows a few of its results, in no order. Positions count from the first letter of the parent shown.

Set 1 — method: universal PBM; form: double-stranded DNA, one strand shown; matrix: in vitro; concentration: not given; reading: higher = stronger binding
Target: Sal-like protein 4, full length isoform B (SALL4, Homo sapiens, UniProt Q9UJQ4-2, residues 1-616)
Setting: 8-mer, flanks averaged, mean of replicates
The E-score of `AGGACATC` is reported as -0.152.
The E-score of `AGTCCGAA` is reported as 0.00772.
For `GATTGCCA`, the E-score was -0.124.
`GACTTAAA` gave an E-score of 0.115.
With `CGGAACAC` the E-score was -0.0649.
With `CCACACAA` the E-score was 0.00907.
With `CATTCCGA` the E-score was 0.0765.
`GAAATACC` gave an E-score of 0.118.
`GAGGTATC` gave an E-score of -0.145.
`CCAGTTAG` gave an E-score of -0.09.
`GACAGACC` gave an E-score of -0.203.
With `GGTCGTAC` the E-score was -0.199.
`CCCAACTC` has an E-score of -0.052.
With `AATTAACC` the E-score was 0.104.
For `CCAAAAGC`, the E-score was -0.162.
The E-score of `AATCCAGT` is reported as -0.0334.
`CCACTTTA` gave an E-score of 0.0772.
`CCCCCCGA` has an E-score of -0.15.
`ATTAAGAA` has an E-score of 0.215.
For `ATTTTAAG`, the E-score was 0.294.

Set 2 — target: CCNB2, cyclin fold, Cln2 fusion (human); method: yeast growth competition, sequencing; matrix: yeast; setting: weak parent motif; baseline: not given; reading: higher = stronger binding
Parent: SLBP docking peptide (human); ARYKRKLLINDFG; partner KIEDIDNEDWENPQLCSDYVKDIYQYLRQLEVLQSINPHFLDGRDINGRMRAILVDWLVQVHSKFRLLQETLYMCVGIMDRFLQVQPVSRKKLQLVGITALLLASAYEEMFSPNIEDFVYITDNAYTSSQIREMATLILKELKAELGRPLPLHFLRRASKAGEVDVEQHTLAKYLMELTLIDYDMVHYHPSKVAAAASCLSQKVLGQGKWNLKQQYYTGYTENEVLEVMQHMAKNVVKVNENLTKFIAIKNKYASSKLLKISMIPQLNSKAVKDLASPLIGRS
For `ARYKMKLLINDFG [R5M]`, “normalised enrichment score” read 0.463.
Under “normalised enrichment score”, `ARYKRKLLSNDFG [I9S]` is recorded as 1.07.
For `ARYKRKLRINDFG [L8R]`, “normalised enrichment score” read 0.376.
Under “normalised enrichment score”, `ARYARKLLINDFG [K4A]` is recorded as 0.318.
`ARYKRKLLINDFA [G13A]` — result for “normalised enrichment score”: 0.51.
For `ARYKRKLLINDGG [F12G]`, “normalised enrichment score” read 0.554.
Under “normalised enrichment score”, `ARYKRKLLITDFG [N10T]` is recorded as 0.718.
`ARYKGKLLINDFG [R5G]` — result for “normalised enrichment score”: 0.307.
For `ARYKRKLLINDFK [G13K]`, “normalised enrichment score” read 0.946.
For `ARYKRKLLINDQG [F12Q]`, “normalised enrichment score” read 0.366.
`ARYKRFLLINDFG [K6F]` — result for “normalised enrichment score”: 0.415.
`ARYKRKHLINDFG [L7H]`: “normalised enrichment score” 0.426.
For `ARFKRKLLINDFG [Y3F]`, “normalised enrichment score” read 0.874.
For `ARAKRKLLINDFG [Y3A]`, “normalised enrichment score” read 0.983.
Under “normalised enrichment score”, `ARYKRKLLINDFY [G13Y]` is recorded as 0.62.
Under “normalised enrichment score”, `ARYPRKLLINDFG [K4P]` is recorded as -0.159.
Under “normalised enrichment score”, `KRYKRKLLINDFG [A1K]` is recorded as -0.176.
Under “normalised enrichment score”, `ASYKRKLLINDFG [R2S]` is recorded as 0.144.
`ARYKRKLLINDPG [F12P]` — result for “normalised enrichment score”: 0.918.
For `ARYKRKLLINDEG [F12E]`, “normalised enrichment score” read 0.617.
Under “normalised enrichment score”, `ARYKRKLLINDDG [F12D]` is recorded as 0.354.
For `ARYKRKLLINIFG [D11I]`, “normalised enrichment score” read 0.0906.
`ARWKRKLLINDFG [Y3W]` — result for “normalised enrichment score”: 0.533.
Under “normalised enrichment score”, `ARYMRKLLINDFG [K4M]` is recorded as 0.676.
For `ARYKRPLLINDFG [K6P]`, “normalised enrichment score” read 0.316.

Set 3 — target: CRIPT, C-terminal peptide; method: DHFR complementation, deep sequencing; matrix: yeast; baseline: wild type; reading: higher = weaker binding
Setting: single substitutions, model-inferred values
Parent: ERBIN, PDZ domain 1 (human); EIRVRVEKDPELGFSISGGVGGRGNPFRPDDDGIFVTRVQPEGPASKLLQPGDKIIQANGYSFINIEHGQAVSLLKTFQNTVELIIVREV; partner TKNYKQTSV
For `P51E`, “binding free energy change” read 0.191 kcal/mol.
For `G60R`, “binding free energy change” read 0.159 kcal/mol.
Under “binding free energy change”, `Q79P` is recorded as 0.0852 kcal/mol.
Under “binding free energy change”, `I55Q` is recorded as 0.0491 kcal/mol.
`T81H`: “binding free energy change” 0.22 kcal/mol.
`G69M` — result for “binding free energy change”: -0.0828 kcal/mol.
`Q79Y`: “binding free energy change” 0.187 kcal/mol.
Under “binding free energy change”, `I16E` is recorded as 0.206 kcal/mol.
`S46F` — result for “binding free energy change”: -0.0327 kcal/mol.
`L12P` — result for “binding free energy change”: 1.1 kcal/mol.
Under “binding free energy change”, `V4L` is recorded as 0.0894 kcal/mol.
Under “binding free energy change”, `T37R` is recorded as 1.23 kcal/mol.
`K54T`: “binding free energy change” 1.02 kcal/mol.

Set 4 — method: protein binding microarray; form: double-stranded DNA, one strand shown; matrix: in vitro; concentration: not given; baseline: not given; reading: higher = stronger binding
Target: Histone acetyltransferase KAT6A, winged helix 1, GST fusion (KAT6A, Homo sapiens, UniProt Q92794, residues 1-85)
Setting: 8-mer, flanks averaged, mean of 2 arrays, mostly near background
Construct (chain): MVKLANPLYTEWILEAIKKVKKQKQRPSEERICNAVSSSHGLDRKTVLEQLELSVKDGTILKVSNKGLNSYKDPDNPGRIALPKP
The E-score of `ACTTTGAC` is reported as -0.147.
`ATCAAGGA` has an E-score of -0.123.
`TAGATGGA` gave an E-score of -0.194.
For `CCCTCAAG`, the E-score was -0.214.
For `CCCTCAGG`, the E-score was -0.0889.
`ACGTTTCG` gave an E-score of -0.0707.
`CTTCCTGC` gave an E-score of -0.154.
With `CATCGGTC` the E-score was 0.117.
With `GGAAAGAA` the E-score was -0.115.
With `AAACACAC` the E-score was -0.0202.
The E-score of `AGGGACCG` is reported as 0.104.
`AGTCCCCC` gave an E-score of 0.0105.
`ATGATACA` has an E-score of -0.156.
`GAGAGATA` gave an E-score of -0.15.
`CTCACTTA` gave an E-score of -0.184.
With `GCGACGAC` the E-score was 0.138.
`CTAGTTGA` has an E-score of -0.118.
`ACGCCCGG` gave an E-score of 0.282.
With `CGTTTCAG` the E-score was 0.0504.
`AAAGCGAA` has an E-score of 0.0469.
The E-score of `AACTGCGG` is reported as 0.316.
`AAAAGGCA` has an E-score of -0.17.
`CCGCGACA` has an E-score of 0.291.
The E-score of `ATACGTTG` is reported as 0.0315.
For `CTCCTGCA`, the E-score was -0.222.

Set 5 — method: DHFR PCA, deep sequencing; matrix: yeast; with: (+)-ABA 0.032 µM; baseline: wild-type fitted maximum; reading: higher = stronger binding
Target: ABI1, truncated, D143A, DHFR fusion (Arabidopsis thaliana)
Setting: methotrexate growth selection, single substitutions
Parent: PYL1, truncated, DHFR fusion (Arabidopsis thaliana); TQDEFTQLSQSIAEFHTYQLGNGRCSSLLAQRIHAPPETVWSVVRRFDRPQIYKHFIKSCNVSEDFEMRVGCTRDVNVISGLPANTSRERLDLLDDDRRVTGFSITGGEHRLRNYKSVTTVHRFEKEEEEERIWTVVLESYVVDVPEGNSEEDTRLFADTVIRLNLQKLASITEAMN; partner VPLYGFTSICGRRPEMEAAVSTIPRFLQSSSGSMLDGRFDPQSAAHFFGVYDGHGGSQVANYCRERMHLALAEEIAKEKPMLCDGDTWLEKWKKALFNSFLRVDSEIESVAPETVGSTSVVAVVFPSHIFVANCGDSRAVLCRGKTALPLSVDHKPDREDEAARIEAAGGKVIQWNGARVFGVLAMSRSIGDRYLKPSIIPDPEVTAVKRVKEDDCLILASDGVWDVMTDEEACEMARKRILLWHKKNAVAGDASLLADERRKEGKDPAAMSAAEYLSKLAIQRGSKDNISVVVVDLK
`R74G`: “relative binding score” 2.13%.
`L94S` — result for “relative binding score”: 3.95%.
`V142S` — result for “relative binding score”: 15.3%.
Under “relative binding score”, `S140E` is recorded as 9.23%.
`S104Y` — result for “relative binding score”: -5.81%.
`H55N`: “relative binding score” 15%.
Under “relative binding score”, `C25M` is recorded as 1.23%.
`F157R` — result for “relative binding score”: 4.89%.
For `N177H`, “relative binding score” read 64.2%.
`E127I`: “relative binding score” 23.9%.
`A158T` — result for “relative binding score”: 8.25%.
Under “relative binding score”, `N61G` is recorded as 0.455%.
Under “relative binding score”, `E109H` is recorded as 4.87%.
`F103L`: “relative binding score” 2.37%.
`Y53C` — result for “relative binding score”: -0.974%.
`A30S` — result for “relative binding score”: 26.7%.
`T119K`: “relative binding score” 0.0382%.
`L91E`: “relative binding score” -2.84%.
Under “relative binding score”, `R113W` is recorded as 6.22%.
Under “relative binding score”, `G108V` is recorded as -2.35%.

Set 6 — method: protein-binding microarray; form: double-stranded DNA, one strand shown; matrix: in vitro; concentration: 2540 nM top; setting: 60-bp whole probe; with: salmon DNA 0.4 mg/ml; baseline: random background probes; reading: higher = stronger binding; shared flanks, not repeated: GCCTAGCAC … GTCTTGATTCGCTTGACGCTGCTG
Target: Interferon regulatory factor 3, full length, phosphomimetic (IRF3, Homo sapiens, UniProt Q14653, residues 1-427, S386D/S396D/S398D/S402D/T404D/S405D)
UniProt Q14653, sequence (whole entry, unmodified, looked up): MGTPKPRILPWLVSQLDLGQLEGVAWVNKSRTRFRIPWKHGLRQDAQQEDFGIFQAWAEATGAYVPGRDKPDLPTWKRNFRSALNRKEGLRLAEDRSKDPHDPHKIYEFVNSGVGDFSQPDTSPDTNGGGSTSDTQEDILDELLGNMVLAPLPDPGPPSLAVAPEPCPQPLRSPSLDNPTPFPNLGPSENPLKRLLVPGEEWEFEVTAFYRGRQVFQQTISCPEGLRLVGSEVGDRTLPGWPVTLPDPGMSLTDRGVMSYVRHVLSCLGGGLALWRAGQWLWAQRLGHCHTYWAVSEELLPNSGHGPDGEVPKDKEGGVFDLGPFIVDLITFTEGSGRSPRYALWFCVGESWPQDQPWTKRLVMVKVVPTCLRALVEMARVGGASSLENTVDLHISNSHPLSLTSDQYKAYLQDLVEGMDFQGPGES
Under “fitted relative affinity”, `TTAGATATCGGGAATGGATTAGTGCTA` is recorded as -0.182 z-score.
`GACGATATCAGTATTGAGACGTGCTAG` — result for “fitted relative affinity”: 0.887 z-score.
`CCCTTAAAAGACGTGCCAATGTGCTAG` — result for “fitted relative affinity”: 0.535 z-score.
`AAACTCGTGTTTTTCTCCTAGTGCTAG` — result for “fitted relative affinity”: 0.573 z-score.
For `GACGGGCTCCTACTGCTGACGTGCTAG`, “fitted relative affinity” read -0.413 z-score.
Under “fitted relative affinity”, `TTAGGTCTCCTTCTCCTTTGGTGCTAG` is recorded as 3.98 z-score.
Under “fitted relative affinity”, `GCCGGTCTCGGTATCGGGACGTGCTAG` is recorded as 2.57 z-score.
Under “fitted relative affinity”, `TCATCTTTCCTTACTTCACTGTGCTAG` is recorded as 3.41 z-score.
`AACGATATCGGGTATCGAGACGTGCTA`: “fitted relative affinity” 0.222 z-score.
Under “fitted relative affinity”, `GACGATTTCAGCCTGGAGACGTGCTAG` is recorded as 0.471 z-score.
For `GACGGTATCAGACTGGGGACGTGCTAG`, “fitted relative affinity” read 1.44 z-score.
For `GACGATATCAGACAGGAGACGTGCTAG`, “fitted relative affinity” read 0.0897 z-score.
`GGGCCTAGCCATTATGAGTCTGTGCTA`: “fitted relative affinity” -0.933 z-score.
`CTAAAAATCCCATTAAATTTGTGCTAG` — result for “fitted relative affinity”: 1.22 z-score.
`GCACTGTGCCTGCTGCCCTTGTGCTAG`: “fitted relative affinity” -0.468 z-score.
Under “fitted relative affinity”, `TTAGGACTGGGGTTACGGTTAGTGCTA` is recorded as -0.619 z-score.

Further values, each from its own experiment
With `PhoQ, residues 284 288 289 292 302 303 AGGCYF` the fold induction was 9.21 (PhoP, residues 12 14 15 18 19 QYCSL (Escherichia coli, UniProt P23836); Sort-seq, item: YFP reporter; E. coli; PhoQ-PhoP variant library, with: 10 µM Mg2+; baseline: high Mg2+ state, higher = stronger signaling).

Some of these lines once more (set 6):
Under “fitted relative affinity”, `TTAGGTCTCCTTCTCCTTTGGTGCTAG` is recorded as 3.98 z-score.
`CTAAAAATCCCATTAAATTTGTGCTAG` — result for “fitted relative affinity”: 1.22 z-score.
`AACGATATCGGGTATCGAGACGTGCTA`: “fitted relative affinity” 0.222 z-score.
For `GACGGGCTCCTACTGCTGACGTGCTAG`, “fitted relative affinity” read -0.413 z-score.
Under “fitted relative affinity”, `TTAGATATCGGGAATGGATTAGTGCTA` is recorded as -0.182 z-score.
`GGGCCTAGCCATTATGAGTCTGTGCTA`: “fitted relative affinity” -0.933 z-score.
`GCACTGTGCCTGCTGCCCTTGTGCTAG`: “fitted relative affinity” -0.468 z-score.
For `GACGGTATCAGACTGGGGACGTGCTAG`, “fitted relative affinity” read 1.44 z-score.
`CCCTTAAAAGACGTGCCAATGTGCTAG` — result for “fitted relative affinity”: 0.535 z-score.
Under “fitted relative affinity”, `TCATCTTTCCTTACTTCACTGTGCTAG` is recorded as 3.41 z-score.
Under “fitted relative affinity”, `TTAGGACTGGGGTTACGGTTAGTGCTA` is recorded as -0.619 z-score.
